Measured values pooled from the literature.
Lines come from different studies, so protocols differ. Values joined by “and” are separate records of one study, mostly repeats; a detail may differ. ± gives the spread as reported.

| Structure (SMILES) | target or system | assay | system | setting | quantity | result |
| --- | --- | --- | --- | --- | --- | --- |
| CCCCCCCCCCCCCCCC(=O)NCCO | Plasmodium falciparum | – | W2 | – | IC50 | 3.98 µM |
| Cn1c(C(=O)Nc2ccc3c(c2)OCCO3)cc2c(=O)n3ccccc3nc21 | Vero | cytotoxicity, MTT | – | 24 (unit not given) | IC50 | 151 µM |
| N#C[Se]CC1Cc2ccc(Oc3ccc(F)cc3)cc2O1 (racemic) | Vero | cell viability, AlamarBlue | – | – | EC50 | > 10 µM |
| Cc1nn(-c2ccc(Cl)cc2)c2c1C(c1ccc(Cl)c(Cl)c1)C(C#N)=C(N)O2 (stereo not drawn) | Vero | MTT | – | 25 µM | viability | 56.4% |
| O=C(Nc1ccccc1F)c1cc2c(=O)n3ccccc3nc2n1Cc1ccccc1 | Vero | MTT | – | 100 µM, 24 (unit not given) | viability | 37.3% |
| O=C1CCCCN1c1ccc(CO[C@@H]2COc3nc([N+](=O)[O-])cn3C2)cn1 | Vero | cytotoxicity | – | – | IC50 | > 100 µg/mL |
| COc1ccc(C2C(C#N)=C(N)Oc3c2c(C)nn3-c2ccc(Cl)cc2)cc1 (stereo not drawn) | Vero | MTT | – | 25 µM | viability | 59.8% |
| Cc1cccn2c(=O)c3cc(C(=O)Nc4ccc(N(C)C)cc4)n(C)c3nc12 | Vero | MTT | – | 1.6 µM, 24 (unit not given) | viability | 84.3% |
| O=C1COCCN1c1ccc(CO[C@@H]2COc3nc([N+](=O)[O-])cn3C2)cn1 | Vero | cytotoxicity | – | – | IC50 | > 100 µg/mL |
| CC(C)C[C@H](NC(=O)[C@H](C)NC(=O)[C@@H](NC(=O)[C@H](CCCNC(=N)N)NC(=O)[C@H](CC(C)C)NC(=O)[C@H](Cc1c[nH]c2ccccc12)NC(=O)[C@@H]1CCCN1C(=O)[C@@H](N)CCCCN)C(C)C)C(=O)N[C@@H](CS)C(=O)N1CCC[C@H]1C(=O)NCC(=O)O | Vero | WST-1 | – | 512 µM, 24 h | viability | 104% and 81.2% and 101% |
| O=C1CCCCN1c1ccc(CO[C@@H]2COc3nc([N+](=O)[O-])cn3C2)cc1 | Vero | cytotoxicity | – | – | IC50 | > 100 µg/mL |
| N#C[C@@]1(n2ccc(N)nc2=O)O[C@H](COP(=O)(O)OP(=O)(O)OP(=O)(O)O)[C@@H](O)[C@H]1O | Vero | cellular egress | – | 10 µM, 24 h preincubation | half-life | 4.1 h |
| Cl.O[C@]12C=C(c3nccc4c3[nH]c3ccccc34)[C@@H]3CCN(CCCC/C=C\CC1)C[C@@]31C[C@@H]3/C=C\CCCCN3[C@H]12 | Vero | cytotoxicity, neutral red | – | 48 h | IC50 | 0.43 ± 0.17 µg/mL |
| CC(=O)c1cccc(NC(=O)c2cc3c(=O)n4ccccc4nc3n2C)c1 | Vero | MTT | – | 25 µM, 24 (unit not given) | viability | 56% |
| Cc1nn(-c2ccc(Cl)cc2)c2c1C(c1ccc(-c3ccccc3)cc1)C(C#N)=C(N)O2 (stereo not drawn) | Vero | MTT | – | 100 µM | viability | 49.1% |
| Cc1ccc(NC(=O)c2cc3c(=O)n4cccc(C)c4nc3n2C)cc1Cl | Vero | MTT | – | 0.4 µM, 24 (unit not given) | viability | 91.8% |
| CCCc1nc(N)[nH]c(=O)c1Br | Vero | cell morphology alteration | – | – | minimum cytotoxic concentration | > 100 µM |
| Cn1c(C(=O)Nc2ccc(Cl)cc2)cc2c(=O)n3ccccc3nc21 | Vero | MTT | – | 0.4 µM, 24 (unit not given) | viability | 91.2% |
| Cc1nn(-c2ccc(Cl)cc2)c2c1C(c1ccc(Cl)cc1Cl)C(C#N)=C(N)O2 (stereo not drawn) | Vero | MTT | – | 25 µM | viability | 51.8% |
| Nc1nc(CC(O)c2ccccc2C(F)(F)F)c(Br)c(=O)[nH]1 (stereo not drawn) | Vero | cell morphology alteration | – | – | minimum cytotoxic concentration | > 100 µM |
| Cc1nn(-c2ccc(Cl)cc2)c2c1C(c1ccc(Cl)cc1)C(C#N)=C(N)O2 (stereo not drawn) | Vero | MTT | – | 100 µM | viability | 45.6% |
| COC(=O)[C@@H]1[C@H]2C[C@H]3c4[nH]c5ccccc5c4CCN3C[C@@H]2CC[C@@H]1O | Plasmodium falciparum | – | GB4 | – | IC50 | 3.16 µM |
| Cc1nn(-c2ccc(Cl)cc2)c2c1C(c1ccc(Br)cc1)C(C#N)=C(N)O2 (stereo not drawn) | Vero | MTT | – | 25 µM | viability | 48.1% |
| CCc1ccc(NC(=O)c2cc3c(=O)n4ccccc4nc3n2C)cc1 | Vero | MTT | – | 0.4 µM, 24 (unit not given) | viability | 93% |
